Published values gathered from unrelated publications.
Numbered parts are unrelated; each lists some results of a single study.

Sample 1 — technique: RNA Bind-n-Seq; molecule type: RNA; sample: in vitro; tested at: 365 nM; reference: no-protein control; direction: higher = stronger binding; measurement: RBNS enrichment (R)
Target: RNA binding protein fox-1 homolog 2, RRM domain, GST-SBP tag (RBFOX2, Homo sapiens, UniProt O43251-10, residues 100-194)
Setting: natural RNA segment, single round, ends assumed
Target sequence (chain): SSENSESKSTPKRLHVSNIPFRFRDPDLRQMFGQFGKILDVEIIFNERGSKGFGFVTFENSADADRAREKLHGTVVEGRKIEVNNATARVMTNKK
GGGAGUUCUACAGUCCGACGAUCUGUAUGGCUUACAUCCUGGAAAUUACCUGAUAAUAAAGCAAGUAAAGGUGUAAGGUUUCCUAAGGGAUUACAACACAGUGGUUUCCUGGUCUCUCUCCCUGUCAUCAAUCUGGAAUUCUCGGGUGCCAA: 0.341
GGGAGUUCUACAGUCCGACGAUCUUAUACUUUUGUACAUAUGAGAAAUCAAGGGAUUAGUGCAACCAGUAGAAAGCAUUGAAAUGACUGUCAUUAACCACACAGUCCUGGAGGCAGAGAUGCAGUUACCUACCUGGAAUUCUCGGGUGCCAA: 0.597
GGGAGUUCUACAGUCCGACGAUCGACCUGGAGAUCAUGGUGACUGUAAGCUAAGUCUGUUUUCAUGCCAGAUUUCAGCCCCACCCAGAGUGUGCUCUAGAUGUUGUUGAUUUGAAUGGUUUUCCCAGUUCCCAUGGAAUUCUCGGGUGCCAA: 0.558
GGGAGUUCUACAGUCCGACGAUCCAGACAGGAGCCCAGGAAAGCCGCAGAGGAGCUGAAGCAAGGCAGUCCUCACUAAGCUAGAUAAUGUCUGUGACGGAAGUAAGAAAGUCCUCCUCUGGGAUACGGCACUUUGGAAUUCUCGGGUGCCAA: 0.472

Sample 2 — technique: protein binding microarray; molecule type: double-stranded DNA, one strand shown; sample: in vitro; tested at: not given; reference: not given; direction: higher = stronger binding; measurement: E-score
Target: Histone acetyltransferase KAT6A, both winged helices, GST fusion (KAT6A, Homo sapiens, UniProt Q92794, residues 1-181)
Setting: 8-mer, flanks averaged, mean of 2 arrays, mostly near background
Construct (chain): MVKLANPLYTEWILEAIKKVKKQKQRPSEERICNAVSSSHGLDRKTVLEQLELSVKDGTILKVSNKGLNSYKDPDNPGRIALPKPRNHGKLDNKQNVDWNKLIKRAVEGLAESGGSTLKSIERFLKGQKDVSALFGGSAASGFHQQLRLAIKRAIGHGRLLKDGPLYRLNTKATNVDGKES
ACAGAGGA: -0.237
AATCGCGG: 0.209
GATAACGC: 0.239
CAAACGCG: 0.229

Sample 3 — technique: aptamer microarray, sandwich; molecule type: DNA with 2'F-ANA; sample: in vitro; tested at: 200 nM; together with: Cy3 exosite-II aptamer, 400 nM; direction: higher = stronger binding; measurement: mean fluorescence intensity; strand: GGTTGGTGTGGTTGG
Target: Prothrombin, mature alpha-thrombin (F2, Homo sapiens, UniProt P00734)
Setting: whole 15-mer aptamer, many near background
2'F-ANA at 4 8 11 12: 505 a.u.
2'F-ANA at 1 3 5 8: 68.8 a.u.
2'F-ANA at 1 7 8 12 13 14: 84 a.u.
2'F-ANA at 1 2 5 7 8 9 12: 129 a.u.
2'F-ANA at 2 4 6 7 10 13 14: 61.9 a.u.
2'F-ANA at 2 7 10 11 14 15: 87.3 a.u.

Other studies, line by line
PhoQ, residues 284 288 289 292 302 303 NLSRDF
fold induction (PhoP, residues 12 14 15 18 19 LHSVW (Escherichia coli, UniProt P23836); Sort-seq, item: YFP reporter; E. coli; PhoQ-PhoP variant library, together with: 10 µM Mg2+; reference: high Mg2+ state, higher = stronger signaling): 2.58

For quick reference, copied from above (other studies, line by line):
PhoQ, residues 284 288 289 292 302 303 NLSRDF
fold induction (PhoP, residues 12 14 15 18 19 LHSVW (Escherichia coli, UniProt P23836); Sort-seq, item: YFP reporter; E. coli; PhoQ-PhoP variant library, together with: 10 µM Mg2+; reference: high Mg2+ state, higher = stronger signaling): 2.58
